Assay results of several laboratories.
Every numbered part comes from another study and shows a few of its results, in no order. Substitutions count along the parent as printed.

Series 1
Target: PABPC1L2, full length, GST fusion (mouse, UniProt A0ABA7IW68)
Technique: RNAcompete
Form: RNA
Sample: in vitro
Concentration: 20 nM
Setting: 7-mer, probes averaged, single round
Relative to: mean of 7-mers
Direction: higher = stronger binding
Endpoint: 7-mer Z-score
Construct (chain): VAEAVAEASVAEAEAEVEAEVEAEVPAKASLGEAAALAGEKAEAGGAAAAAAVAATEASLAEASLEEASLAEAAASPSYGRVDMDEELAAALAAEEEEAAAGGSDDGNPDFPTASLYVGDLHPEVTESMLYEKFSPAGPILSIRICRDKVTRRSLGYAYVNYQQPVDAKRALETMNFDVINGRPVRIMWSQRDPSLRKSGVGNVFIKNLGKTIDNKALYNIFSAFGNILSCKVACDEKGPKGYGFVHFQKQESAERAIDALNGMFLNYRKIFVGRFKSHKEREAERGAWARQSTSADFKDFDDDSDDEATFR
Sequence = AGCACAU; value = -0.117
Sequence = UAGACAC; value = -0.0989
Sequence = GCAAAGC; value = -0.121
Sequence = AAGCUUU; value = -0.122
Sequence = GUUAUGU; value = -0.309
Sequence = CGAUUCA; value = -0.141
Sequence = CGCGGAG; value = -0.0754
Sequence = ACCCGGG; value = -0.0881
Sequence = UGGGUCG; value = -0.0174
Sequence = GAUUAAA; value = 1.04
Sequence = GCCACAC; value = -0.322
Sequence = GAGAGAC; value = 0.196
Sequence = AAUCCAC; value = 0.0823
Sequence = ACCCCCU; value = -0.481
Sequence = UCUCGCC; value = -0.456
Sequence = UAAGGAC; value = 0.104
Sequence = UAUUUAA; value = 0.0315
Sequence = GGAACCA; value = 0.2

Series 2
Target: Histone acetyltransferase KAT6A, winged helix 1, GST fusion (KAT6A, Homo sapiens, UniProt Q92794, residues 1-85)
Technique: protein binding microarray
Form: double-stranded DNA, one strand shown
Sample: in vitro
Concentration: not given
Setting: 8-mer, flanks averaged, mean of 2 arrays, mostly near background
Relative to: not given
Direction: higher = stronger binding
Endpoint: E-score
Residues (chain): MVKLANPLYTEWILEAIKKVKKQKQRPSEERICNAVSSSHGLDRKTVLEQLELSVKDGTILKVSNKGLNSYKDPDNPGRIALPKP
Sequence = AGGGTACC; value = -0.017
Sequence = CACCTGAA; value = -0.237
Sequence = CCGCATCA; value = 0.209
Sequence = CACACGTA; value = -0.232
Sequence = CGCCCGTC; value = 0.421
Sequence = ACGCCATC; value = 0.0621
Sequence = AAAATTAG; value = -0.0189
Sequence = CTCAGCCC; value = -0.133
Sequence = ACGCTACT; value = 0.151
Sequence = CGCAGTCA; value = 0.111
Sequence = ACGGATTA; value = 0.178
Sequence = GTCGGAAA; value = 0.166
Sequence = GACAAGTA; value = 0.0568
Sequence = ACCGTCCG; value = 0.343
Sequence = AGTGCTCG; value = -0.0991
Sequence = AGTAAGCA; value = -0.214
Sequence = AAGCACGT; value = -0.252
Sequence = CCGTGAAA; value = 0.311
Sequence = ATATAACC; value = -0.123
Sequence = GAAAGCAA; value = -0.107
Sequence = AAGTCCAA; value = -0.161
Sequence = AGTGAATG; value = 0.01
Sequence = CCCGCCAC; value = 0.235

Series 3
Target: CCNB2, cyclin fold, Cln2 fusion (human)
Technique: yeast growth competition, sequencing
Sample: yeast
Setting: strong parent motif
Relative to: not given
Direction: higher = stronger binding
Endpoint: normalised enrichment score
Starting sequence: MICAL3 docking peptide (human); LQLRRQLSFSEDS
Substitution = D12Y; value = 2.26
Substitution = L3C; value = 2.84
Substitution = D12H; value = 2.29
Substitution = Q2W; value = 1.24
Substitution = R5D; value = 0.0536
Substitution = L3E; value = 0.0154
Substitution = Q6S; value = 2.4
Substitution = S10P; value = 0.93
Substitution = E11D; value = 3.55
Substitution = E11S; value = 2.75
Substitution = E11W; value = 1.18
Substitution = F9I; value = -0.0569
Substitution = Q2V; value = 2.89
Substitution = L7H; value = 0.31
Substitution = F9T; value = -0.105
Substitution = Q2P; value = 4.51
Substitution = D12R; value = 2.09
Substitution = Q2M; value = 3.1
Substitution = Q6E; value = 1.64
Substitution = R5G; value = 0.0483
Substitution = R4F; value = 1.41
Substitution = Q6M; value = 2.05
Substitution = L7E; value = 0.326
Substitution = R5I; value = 0.411
Substitution = S8D; value = 2.76

Series 4
Target: Ras GTPase-activating protein-binding protein 1, full length (G3BP1, Homo sapiens, UniProt Q13283)
Sequence of UniProt Q13283 (whole entry, looked up): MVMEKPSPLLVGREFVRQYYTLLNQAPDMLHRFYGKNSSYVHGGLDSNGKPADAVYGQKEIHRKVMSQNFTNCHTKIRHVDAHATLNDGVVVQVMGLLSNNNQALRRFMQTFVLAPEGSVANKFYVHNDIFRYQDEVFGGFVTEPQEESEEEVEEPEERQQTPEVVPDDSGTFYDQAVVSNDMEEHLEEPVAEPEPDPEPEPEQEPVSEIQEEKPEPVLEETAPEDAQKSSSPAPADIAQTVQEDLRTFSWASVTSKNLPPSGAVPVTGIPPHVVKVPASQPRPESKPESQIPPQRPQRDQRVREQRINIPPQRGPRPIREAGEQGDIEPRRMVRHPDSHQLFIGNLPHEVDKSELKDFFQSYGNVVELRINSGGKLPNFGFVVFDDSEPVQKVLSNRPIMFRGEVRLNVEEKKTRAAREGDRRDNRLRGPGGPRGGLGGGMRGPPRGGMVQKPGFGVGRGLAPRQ
Technique: RNA Bind-n-Seq
Form: RNA
Sample: in vitro
Concentration: 200 nM
Setting: whole 134-nt RNA, ends assumed
Added: 150 mM LiCl
Relative to: input library
Direction: higher = stronger binding
Endpoint: log2 enrichment
All molecules: 7-deaza-guanosine replaces G
Shared flanks, not repeated: GGGAGUUCUACAGUCCGACGAUC … UGGAAUUCUCGGGUGUCAAGG
Sequence = UGGCUAGUCAGCAGCGGAUGUCCCCUCCAGGUUAAGAAAGCCGAACCAGAGCCGAUGCGAGAGGAGGAGAAAAUGAUUCCUCCUACGAAA; value = 0.696
Sequence = GUCCUGUGCUACACAUCGUAUGUACCGAAUCGGUUUUUUUGGAAAAAGGAAAAAAAGGAAAGUAUUAUGUUACGCCGUUCGGAUCUGCAC; value = -2.06
Sequence = UGUGCUACACAUCGUAUGUACCGAAUCGGGGAAAAAAAGGGGAAAAAGGGGUUUUUUUGGGGAAAGUAUUAUGUUACGCCGUUCGGAUCU; value = -0.232
Sequence = CACAGACAACACGCACCCACACAGACACAGAGGGAAGGGGUUGGGAUGGGGACAGGGUGCACAGCAGGGCGGGGUAGGACCCGAGCCCCU; value = -0.889
Sequence = AGUCCUGUGCUACACAUCGUAUGUACCGAAUCGGGCCCCGGGGCCCCGGGCCCCGGGAAAGUAUUAUGUUACGCCGUUCGGAUCUGCACU; value = -2.07
Sequence = CUCAAGUCCUGUGCUACACAUCGUAUGUACCGAAUCGGGAGGGGAGGGAGGGGAAAGUAUUAUGUUACGCCGUUCGGAUCUGCACUUCCA; value = 0.0803
Sequence = UGGGGGGUGGAUUUUGUUUAUUUUUUUAGCUCAUUUCCAGGGGUGGGAAUUUUUUUUUAAUAUGUGUCAUGAAUAAAGUUGUUUUUGAAA; value = 0.825
Sequence = AGUCCUGUGCUACACAUCGUAUGUACCGAAUCGGGAAAAGGGAAAAGGGAAAAGGGGAAAGUAUUAUGUUACGCCGUUCGGAUCUGCACU; value = -0.218
Sequence = CACAGACAACACGCACCCACACUGACACAGAGGGAAGGGGUUGGGAUGGGGACAGGGUGCACAGCAGGGCGGGGUAGGACCCCAGCCCCU; value = 0.613
Sequence = UGGGAGGUGGAUUUUGUUUAUUUUUUUAGCUCAUUUCCAGGGGUGGGAAUUUUUUUUUAAUAUGUGUCGUGAAUAAAGUUGUUUUUGAAA; value = 0.0758
Sequence = GCAGGAAGUAAAAACAAAUGGAAAUGCUUCGGAUAGUGGCAGGGGUGGGGGUUGCUAAGGAAAGGGUGGGAUGGGAGUGGGUAAAGAGAU; value = -0.169

Series 5
Target: Prothrombin, mature alpha-thrombin (F2, Homo sapiens, UniProt P00734)
Technique: aptamer microarray, sandwich
Form: DNA with 2'F-ANA
Sample: in vitro
Concentration: 200 nM
Setting: whole 15-mer aptamer, many near background
Added: Cy3 exosite-II aptamer, 400 nM
Direction: higher = stronger binding
Endpoint: mean fluorescence intensity
Sequence: GGTTGGTGTGGTTGG
Modification = 2'F-ANA at 4 5 6 8 9 10 12 14 15; value = 78 a.u.
Modification = 2'F-ANA at 2 3 5 7 8 11 13; value = 106 a.u.
Modification = 2'F-ANA at 5 7 8 11 12 14; value = 47.5 a.u.
Modification = 2'F-ANA at 2 6 7 11; value = 315 a.u.
Modification = 2'F-ANA at 4 5 8 11 13 14 15; value = 44.3 a.u.
Modification = 2'F-ANA at 3 4 6 7 8 10 12 13 15; value = 268 a.u.
Modification = 2'F-ANA at 1 2 3 5 8 9 11 12; value = 105 a.u.
Modification = 2'F-ANA at 3 5 7 9 12 13 15; value = 171 a.u.
Modification = 2'F-ANA at 2 3 5 6 8 9 10 11 15; value = 139 a.u.
Modification = 2'F-ANA at 2 3 4 5 6 7 8 14; value = 52.2 a.u.
Modification = 2'F-ANA at 4 7 10 11 12 15; value = 109 a.u.
Modification = 2'F-ANA at 3 5 10 11 14; value = 52.4 a.u.
Modification = 2'F-ANA at 3 8 10 11 13 14; value = 414 a.u.
Modification = 2'F-ANA at 1 2 3 4 5 8 9 14 15; value = 45.6 a.u.
Modification = 2'F-ANA at 1 2 5 8 9 10 13 14 15; value = 45.5 a.u.
Modification = 2'F-ANA at 1 2 6 8 9 11 12; value = 323 a.u.
Modification = 2'F-ANA at 2 3 4 5 6 9 10 11 12 14 15; value = 52.8 a.u.
Modification = 2'F-ANA at 1 2 4 7 11 13; value = 79.4 a.u.
Modification = 2'F-ANA at 1 3 4 9 10 12 14 15; value = 55.5 a.u.
Modification = 2'F-ANA at 2 3 4 8 12 13 15; value = 658 a.u.
Modification = 2'F-ANA at 2 3 4 8 9 10 12 13 14; value = 171 a.u.

Series 6
Target: ABI1, truncated, D143A, DHFR fusion (Arabidopsis thaliana, UniProt P49597)
Technique: DHFR PCA, dose-response
Sample: yeast
Setting: Hill fit, mean, not affinity
Added: (+)-ABA, dose series
Direction: lower = more sensitive
Endpoint: ABA EC50
Starting sequence: PYL1, truncated, DHFR fusion (Arabidopsis thaliana, UniProt Q8VZS8); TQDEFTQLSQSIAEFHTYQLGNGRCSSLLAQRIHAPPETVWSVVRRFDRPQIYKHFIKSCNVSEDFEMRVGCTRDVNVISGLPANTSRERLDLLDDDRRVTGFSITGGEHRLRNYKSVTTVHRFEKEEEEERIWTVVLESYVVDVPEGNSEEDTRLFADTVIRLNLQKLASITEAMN
Substitution = F157Y; value = 63.5 µM
Substitution = F157V; value = 35.2 µM
Substitution = L93K; value = 6.99 µM
Substitution = V62K; value = 89.5 µM
Substitution = R24S; value = 4.66 µM
Substitution = G23H; value = 4.32 µM
Substitution = P146R; value = 509 µM
Substitution = P36N; value = 3.59 µM
Substitution = S63R; value = 2.43 µM
Substitution = R90G; value = 486 µM
Substitution = E67P; value = 3.65 µM
Substitution = G71E; value = 131 µM
Substitution = T101Y; value = 10.4 µM
Substitution = I162C; value = 27.6 µM
Substitution = L28V; value = 11.6 µM
Substitution = N85R; value = 0.683 µM
Substitution = D96R; value = 832 µM
Substitution = S27M; value = 128 µM
Substitution = M176F; value = 4.08 µM
Substitution = R113Q; value = 1.74 µM
Substitution = E139V; value = 1.94 µM
Substitution = L82I; value = 4.5 µM
Substitution = T173S; value = 2.44 µM
Substitution = S11R; value = 8.56 µM
Substitution = L164W; value = 9.33 µM

For quick reference, copied from above (series 6):
Substitution = P146R; value = 509 µM
Substitution = P36N; value = 3.59 µM
Substitution = S63R; value = 2.43 µM
Substitution = R90G; value = 486 µM
Substitution = E67P; value = 3.65 µM
Substitution = G71E; value = 131 µM
Substitution = T101Y; value = 10.4 µM
Substitution = I162C; value = 27.6 µM
Substitution = L28V; value = 11.6 µM
Substitution = N85R; value = 0.683 µM
Substitution = D96R; value = 832 µM
Substitution = S27M; value = 128 µM
